Results from different studies.
Compare with care: the assays were run in different laboratories. “And” joins repeats or separate records; there may be more than shown. ± marks the error that the study gave. Values after ≈ are worked out from the molar mass of the structure shown.

| SMILES | target | test | test system | setting | how to read | quantity | result |
| --- | --- | --- | --- | --- | --- | --- | --- |
| c1coc(-c2n[nH]cc2-c2ccnc3ccccc23)c1 | SAT4 (Candida albicans) | kinase binding, MIB/MS competition | Candida albicans lysate | 1 µM | baseline: DMSO | log2 fold change | 0.09 |
| Cc1c(CN2CCN(C(=O)[C@H](C)O)CC2)sc2c(N3CCOCC3)nc(-c3cnc(N)nc3)nc12 | phospho-Akt | Akt phosphorylation, inhibitor | human patients with peritoneal mesothelioma, plasma | PK-PD study | – | IC50 | 0.017 µg/mL (≈ 0.0341 µM) |
| O=C(NCCO[N+](=O)[O-])c1cccnc1 | Nedd8-cullin1 interaction | neddylation, AlphaScreen | – | 100 µM | – | inhibition | 41.4% |
| O=CO | sulfate/chloride exchanger, human | sulfate influx, inhibitor | neutrophils | external site, added: 2 µM nigericin, 85 mM K+ | – | Ki | 81.8 mM |
| O=C(NC[C@H](O)CO)c1ccncc1Nc1ccc(I)cc1F | TDO2 human | inhibitor | A-172 | 1 µM | – | kynurenine production | 19.1% |
| CCN1CCN(Cc2ccc(NC(=O)c3ccc(C)c(Oc4ccnc5[nH]ccc45)c3)cc2C(F)(F)F)CC1 | ABL and ARG human | KiNativ | A-375 live cells | 0.5 µM | – | inhibition | > 98% |
| COc1ccc(-c2cc(=O)c3c(O)cc(O[C@@H]4O[C@H](CO[C@@H]5O[C@@H](C)[C@H](O)[C@@H](O)[C@H]5O)[C@@H](O)[C@H](O)[C@H]4O)cc3o2)cc1O | Nedd8-cullin1 interaction | neddylation, AlphaScreen | – | 100 µM | – | inhibition | 50.2% |
| C[n+]1cccc2cc(C=NNC(=O)c3ccc4ccc5ccc(C(=O)NN=Cc6ccc7c(ccc[n+]7C)c6)nc5c4n3)ccc21.[I-].[I-] | hairpin duplex DNA | UV melting | – | 2 molar equivalents, DNA 3 µM | – | ΔTm | 2 °C |
| COC(=O)[C@@H]1CC2=CC(=O)CC[C@]2(C)[C@@]23O[C@@H]2C[C@@]2(C)[C@@H](CC[C@@]24CCC(=O)O4)[C@H]13 | Nedd8-cullin1 interaction | neddylation, AlphaScreen | – | 100 µM | – | inhibition | 22.4% |
| [O]=[Mo](=[O])([OH])[OH] | sulfate/chloride exchanger, human | – | neutrophils | external binding site | – | Km | 45.8 mM |
| OCCN(CCO)c1nc(N2CCCCC2)c2nc(N(CCO)CCO)nc(N3CCCCC3)c2n1 | Nedd8-cullin1 interaction | neddylation, AlphaScreen | – | 100 µM | – | inhibition | 67.3% |
| [Ca+2] | human TRPA1 W1103A | ion current, two-electrode voltage clamp | Xenopus oocytes | +80 mV, added: AITC | – | desensitization time constant | 258 s and 336 s and 229 s and 211 s and 238 s and 466 s |
| CC(C)(Sc1cc(C(C)(C)C)c(O)c(C(C)(C)C)c1)Sc1cc(C(C)(C)C)c(O)c(C(C)(C)C)c1 | Nedd8-cullin1 interaction | neddylation, AlphaScreen | – | 100 µM | – | inhibition | 9.2% |
| CCOc1ccc(N(C)S(=O)(=O)c2cc(Cl)sc2C(=O)Nc2cc(Cl)cc(C(=O)O)c2)cc1OC | nuclear hormone receptors | binding | – | – | – | EC50 | > 0.025 mM |
| N#Cc1ccc2c(-c3ccncc3)c(-c3ccc(F)cc3)nn2c1 | Pom1 kinase Candida albicans | MIB/MS competition binding | Candida albicans cell lysate | 100 nM | baseline: DMSO, lower = stronger binding | log2 fold change | -0.458 |
| O=C(O)CC(O)(CC(=O)O)C(=O)O | sulfate/chloride exchanger, human | sulfate influx, inhibitor | neutrophils | external site, added: 2 µM nigericin, 85 mM K+ | – | Ki | ~80 mM |
| CC(=O)Nc1cccc(-n2c(=O)n(C3CC3)c(=O)c3c(Nc4ccc(I)cc4F)n(C)c(=O)c(C)c32)c1 | TDO2 human | inhibitor | A-172 | 1 µM | – | kynurenine production | 14.1% |
| Cc1n[nH]c2ccc(-c3cc(OC[C@@H](N)Cc4ccccc4)cnc3-c3ccoc3)cc12 | Pom1 kinase Candida albicans | MIB/MS competition binding | Candida albicans cell lysate | 100 nM | baseline: DMSO, lower = stronger binding | log2 fold change | -0.418 |
| C[N+](C)(C)Cc1cccc(N=Nc2cccc(C[N+](C)(C)C)c2)c1 | muscarinic potassium conductance, frog | ion current | atrial trabeculae | 20 µM, 22-24 °C, flash relaxation, added: carbachol 5 µM | – | rate constant | 3.23 s⁻¹ |

| SMILES | target | test | test system | setting | how to read | quantity | result |
| --- | --- | --- | --- | --- | --- | --- | --- |
| COc1nnc2ccc(N3CCC(c4ccc(OCCN5CCN(C)C(=O)[C@H]5C)cc4)CC3)nn12 | BRD4 (human) | qPCR, measured: BRD4 target genes | cancer patients, peripheral blood | dose not given | – | time to maximum effect | 2 to 3 h |
| Oc1ccccc1-c1n[nH]cc1-c1ccnc2ccccc12 | SAT4 (Candida albicans) | kinase binding, MIB/MS competition | Candida albicans lysate | 10 µM | baseline: DMSO | log2 fold change | -0.09 |
| CCOC(=O)[C@H](CCc1ccccc1)N[C@@H](C)C(=O)N1CCC[C@H]1C(=O)O | Nedd8-cullin1 interaction | neddylation, AlphaScreen | – | 100 µM | – | inhibition | 17.8% |
| COc1nc(NCc2cn(-c3ccc(C(=O)Nc4ccc(C(F)(F)F)cc4)cc3)nn2)nc(OC)n1 | VEGF (human) | sandwich ELISA | HCT-116 | concentration not given | baseline: untreated cells | VEGF protein level reduction | 38% |
| C=C(CC)C(=O)c1ccc(OCC(=O)O)c(Cl)c1Cl | sulfate/chloride exchanger, human | sulfate influx, inhibitor | neutrophils | added: 2 µM nigericin, 85 mM K+ | – | Ki | 0.00708 mM and 0.0071 mM |
| NCCCCCC(=O)O | Nedd8-cullin1 interaction | neddylation, AlphaScreen | – | 100 µM | – | inhibition | 11.8% |
| N=C(N)c1ccc(-c2ccc(-c3ccc(C(=N)N)cc3)o2)cc1 | PRMT1 | enzyme activity, inhibitor | – | – | baseline: SAH IC50 over compound IC50 | relative IC50 | 0.56 |
| [Br-].[K+] | sulfate/chloride exchanger, human | – | neutrophils | external binding site | – | Km | 37.9 mM |
| CC[C@@H]1[C@H](F)C(=O)N[C@@H]1COc1nccc2cc(C(N)=O)c(OC)cc12 | Aurora A, B and C | ATP-site probe binding, inhibitor, ActivX ATP probe profiling | THP-1 cell lysate | 0.01 mM, ATP loop site | – | inhibition | 4.9% |
| N#Cc1ccn2c(-c3ccncc3)c(-c3ccc(F)cc3)nc2c1 | Pom1 kinase Candida albicans | MIB/MS competition binding | Candida albicans cell lysate | 1 µM | baseline: DMSO, lower = stronger binding | log2 fold change | -0.241 |
| C#Cc1cc(-c2cc(Nc3nc(N[C@@H](C)c4ccc(F)cn4)ncc3Cl)n[nH]2)ccc1C=O | panel of 416 human kinases | kinase activity | – | 200 nM, hit threshold 1 | – | number of kinase hits | 16 |
| c1ccc(-c2n[nH]cc2-c2ccnc3ccccc23)nc1 | Pom1 kinase Candida albicans | MIB/MS competition binding | Candida albicans cell lysate | 100 nM | baseline: DMSO, lower = stronger binding | log2 fold change | 1.43 |
| O=C(O)CCC(=O)O | sulfate/chloride exchanger, human | sulfate influx, inhibitor | neutrophils | external site, added: 2 µM nigericin, 85 mM K+ | – | Ki | ~80 mM |
| O=C(NN=Cc1ccc(C[n+]2ccccc2)cc1)c1ccc2ccc3ccc(C(=O)NN=Cc4ccc(C[n+]5ccccc5)cc4)nc3c2n1.[Br-].[Br-] | hairpin duplex DNA | UV melting | – | 2 molar equivalents, DNA 3 µM | – | ΔTm | 0.8 °C |
| O=C(O)C(=O)O | sulfate/chloride exchanger, human | sulfate influx, inhibitor | neutrophils | external site, added: 2 µM nigericin, 85 mM K+ | – | Ki | 7.4 mM and 7.38 mM |
| Nc1cc(-c2ccncc2)c[nH]c1=O | Nedd8-cullin1 interaction | neddylation, AlphaScreen | – | 100 µM | – | inhibition | -13.1% |
| [O]=[W](=[O])([OH])[OH] | sulfate/chloride exchanger, human | – | neutrophils | external binding site | – | Km | 1 mM |
| Nc1ncnc2c1ncn2[C@@H]1O[C@H](COP(=O)([O-])OP(=O)([O-])OP(=O)(O)O)[C@@H](O)[C@H]1O.[Mg+2] | P2X3 receptor (mouse, D158A) | ion current, patch clamp | nodose ganglion neurons, P2rx3 D158A/D158A mice | 10 µM, compound anion form | baseline: ATP-induced current | relative current | 0.107 ± 0.063 |

Some of these lines once more:
| SMILES | target | test | test system | setting | how to read | quantity | result |
| --- | --- | --- | --- | --- | --- | --- | --- |
| C[n+]1cccc2cc(C=NNC(=O)c3ccc4ccc5ccc(C(=O)NN=Cc6ccc7c(ccc[n+]7C)c6)nc5c4n3)ccc21.[I-].[I-] | hairpin duplex DNA | UV melting | – | 2 molar equivalents, DNA 3 µM | – | ΔTm | 2 °C |
| CC[C@@H]1[C@H](F)C(=O)N[C@@H]1COc1nccc2cc(C(N)=O)c(OC)cc12 | Aurora A, B and C | ATP-site probe binding, inhibitor, ActivX ATP probe profiling | THP-1 cell lysate | 0.01 mM, ATP loop site | – | inhibition | 4.9% |
| CC(=O)Nc1cccc(-n2c(=O)n(C3CC3)c(=O)c3c(Nc4ccc(I)cc4F)n(C)c(=O)c(C)c32)c1 | TDO2 human | inhibitor | A-172 | 1 µM | – | kynurenine production | 14.1% |
| O=C(O)C(=O)O | sulfate/chloride exchanger, human | sulfate influx, inhibitor | neutrophils | external site, added: 2 µM nigericin, 85 mM K+ | – | Ki | 7.4 mM and 7.38 mM |
| [Br-].[K+] | sulfate/chloride exchanger, human | – | neutrophils | external binding site | – | Km | 37.9 mM |
